Measurements of several laboratories.
Values joined by “and” are separate records of one study, mostly repeats; a detail may differ. ± gives the spread as reported.
BPTF bromodomain: Nucleosome-remodeling factor subunit BPTF, bromodomain (BPTF, Homo sapiens, UniProt Q12830)
LGALS1: Galectin-1 (LGALS1, Homo sapiens, UniProt P09382)
UniProt P09382, sequence (whole entry, looked up): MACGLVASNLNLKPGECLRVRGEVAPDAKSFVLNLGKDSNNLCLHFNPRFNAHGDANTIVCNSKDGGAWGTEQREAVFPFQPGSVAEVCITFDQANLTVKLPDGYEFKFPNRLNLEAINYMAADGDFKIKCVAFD
RIPK3: Receptor-interacting serine/threonine-protein kinase 3 (RIPK3, Homo sapiens, UniProt Q9Y572)
UniProt Q8I5R7, sequence (whole entry, looked up): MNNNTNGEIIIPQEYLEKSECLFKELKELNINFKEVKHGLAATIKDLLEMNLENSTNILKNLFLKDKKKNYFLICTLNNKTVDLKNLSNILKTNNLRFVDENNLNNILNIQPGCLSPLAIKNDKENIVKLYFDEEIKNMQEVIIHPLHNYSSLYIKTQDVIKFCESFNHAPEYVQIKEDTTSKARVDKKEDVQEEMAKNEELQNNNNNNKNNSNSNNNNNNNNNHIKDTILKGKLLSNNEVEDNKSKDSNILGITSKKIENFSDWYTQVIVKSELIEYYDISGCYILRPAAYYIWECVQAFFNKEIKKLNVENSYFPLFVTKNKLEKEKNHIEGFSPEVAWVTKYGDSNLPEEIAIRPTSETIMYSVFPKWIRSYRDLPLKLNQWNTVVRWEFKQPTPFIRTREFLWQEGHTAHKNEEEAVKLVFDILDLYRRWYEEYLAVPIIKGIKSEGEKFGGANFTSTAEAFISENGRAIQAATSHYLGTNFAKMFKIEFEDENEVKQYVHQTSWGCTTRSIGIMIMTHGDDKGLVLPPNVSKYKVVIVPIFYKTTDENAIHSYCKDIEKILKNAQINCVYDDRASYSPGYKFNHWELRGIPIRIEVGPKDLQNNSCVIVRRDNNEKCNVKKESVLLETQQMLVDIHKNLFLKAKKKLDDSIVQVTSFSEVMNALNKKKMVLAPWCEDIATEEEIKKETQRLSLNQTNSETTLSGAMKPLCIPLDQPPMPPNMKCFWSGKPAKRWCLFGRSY
UniProt Q9Y572, sequence (whole entry, looked up): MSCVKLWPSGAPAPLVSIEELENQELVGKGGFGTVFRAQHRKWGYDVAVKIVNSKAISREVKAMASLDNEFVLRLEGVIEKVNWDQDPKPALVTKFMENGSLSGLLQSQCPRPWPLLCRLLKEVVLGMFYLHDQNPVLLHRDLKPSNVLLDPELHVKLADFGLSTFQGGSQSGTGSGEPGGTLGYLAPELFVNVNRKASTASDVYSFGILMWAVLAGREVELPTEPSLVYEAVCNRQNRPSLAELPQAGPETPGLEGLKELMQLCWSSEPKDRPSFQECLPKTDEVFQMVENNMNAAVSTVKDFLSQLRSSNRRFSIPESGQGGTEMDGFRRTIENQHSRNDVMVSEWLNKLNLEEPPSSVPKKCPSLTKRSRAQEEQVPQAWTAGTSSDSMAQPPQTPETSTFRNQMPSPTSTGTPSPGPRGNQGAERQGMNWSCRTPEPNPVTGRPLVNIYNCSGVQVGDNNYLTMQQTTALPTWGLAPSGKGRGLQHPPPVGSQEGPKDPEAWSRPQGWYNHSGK
UniProt Q6Q271, sequence (whole entry, looked up): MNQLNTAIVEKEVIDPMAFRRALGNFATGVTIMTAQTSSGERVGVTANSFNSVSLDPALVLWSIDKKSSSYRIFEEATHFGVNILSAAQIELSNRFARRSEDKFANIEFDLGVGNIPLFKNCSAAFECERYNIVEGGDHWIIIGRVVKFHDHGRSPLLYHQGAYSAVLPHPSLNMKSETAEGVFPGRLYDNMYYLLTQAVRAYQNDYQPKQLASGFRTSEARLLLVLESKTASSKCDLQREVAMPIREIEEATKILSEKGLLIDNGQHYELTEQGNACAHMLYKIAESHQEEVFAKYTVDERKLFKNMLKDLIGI
UniProt Q9Y336, sequence (whole entry, unmodified, looked up): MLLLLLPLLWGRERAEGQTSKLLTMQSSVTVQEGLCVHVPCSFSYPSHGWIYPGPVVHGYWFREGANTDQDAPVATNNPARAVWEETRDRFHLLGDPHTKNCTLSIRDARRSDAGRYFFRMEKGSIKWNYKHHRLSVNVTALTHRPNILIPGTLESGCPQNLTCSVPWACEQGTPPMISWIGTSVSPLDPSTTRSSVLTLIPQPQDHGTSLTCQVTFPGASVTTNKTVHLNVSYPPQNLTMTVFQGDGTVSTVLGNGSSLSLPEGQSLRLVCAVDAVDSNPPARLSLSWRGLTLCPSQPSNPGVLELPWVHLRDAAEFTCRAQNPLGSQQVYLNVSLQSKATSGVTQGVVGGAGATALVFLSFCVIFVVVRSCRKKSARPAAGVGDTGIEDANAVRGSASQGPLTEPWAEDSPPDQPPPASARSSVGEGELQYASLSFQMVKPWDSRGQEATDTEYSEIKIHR
UniProt Q96EB6, sequence (whole entry, unmodified, looked up): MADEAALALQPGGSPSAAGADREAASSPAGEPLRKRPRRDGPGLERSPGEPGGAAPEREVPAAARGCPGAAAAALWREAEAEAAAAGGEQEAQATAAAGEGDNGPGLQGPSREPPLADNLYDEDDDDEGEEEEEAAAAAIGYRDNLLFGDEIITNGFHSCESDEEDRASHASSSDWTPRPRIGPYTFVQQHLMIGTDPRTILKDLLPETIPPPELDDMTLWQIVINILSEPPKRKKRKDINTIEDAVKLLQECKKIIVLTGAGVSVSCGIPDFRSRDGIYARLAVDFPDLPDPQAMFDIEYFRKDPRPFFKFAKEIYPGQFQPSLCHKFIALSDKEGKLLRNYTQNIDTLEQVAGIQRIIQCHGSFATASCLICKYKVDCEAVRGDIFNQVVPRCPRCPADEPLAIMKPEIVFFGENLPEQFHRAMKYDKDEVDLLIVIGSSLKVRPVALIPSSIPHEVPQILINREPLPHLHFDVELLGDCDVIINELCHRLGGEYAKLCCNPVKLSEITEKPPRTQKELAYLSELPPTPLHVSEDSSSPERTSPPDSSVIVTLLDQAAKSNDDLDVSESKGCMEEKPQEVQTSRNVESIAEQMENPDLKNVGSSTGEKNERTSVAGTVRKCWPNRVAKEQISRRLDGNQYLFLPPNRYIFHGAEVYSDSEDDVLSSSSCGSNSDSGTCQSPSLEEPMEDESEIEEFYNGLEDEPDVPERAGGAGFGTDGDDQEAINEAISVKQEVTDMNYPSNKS
UniProt P28702, sequence (whole entry, looked up): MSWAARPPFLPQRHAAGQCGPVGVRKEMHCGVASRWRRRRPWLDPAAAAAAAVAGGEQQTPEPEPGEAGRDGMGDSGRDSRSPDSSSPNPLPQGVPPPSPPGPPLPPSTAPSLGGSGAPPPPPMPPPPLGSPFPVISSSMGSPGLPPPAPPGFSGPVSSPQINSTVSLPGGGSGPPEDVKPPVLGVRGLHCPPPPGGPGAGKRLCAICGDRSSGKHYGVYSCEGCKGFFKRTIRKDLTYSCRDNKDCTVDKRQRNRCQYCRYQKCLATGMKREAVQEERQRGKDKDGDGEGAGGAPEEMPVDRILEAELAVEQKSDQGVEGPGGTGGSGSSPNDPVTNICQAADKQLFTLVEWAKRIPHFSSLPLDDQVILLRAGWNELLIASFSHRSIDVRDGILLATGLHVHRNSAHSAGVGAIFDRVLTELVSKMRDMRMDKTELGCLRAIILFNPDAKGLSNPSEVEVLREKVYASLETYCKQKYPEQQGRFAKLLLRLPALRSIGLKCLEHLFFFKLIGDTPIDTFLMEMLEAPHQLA
UniProt P0A7K2, sequence (whole entry, looked up): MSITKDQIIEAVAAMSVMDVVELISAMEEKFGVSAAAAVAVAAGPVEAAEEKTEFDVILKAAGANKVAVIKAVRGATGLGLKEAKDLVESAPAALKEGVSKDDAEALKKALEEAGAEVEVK
UniProt Q9GZU1, sequence (whole entry, looked up): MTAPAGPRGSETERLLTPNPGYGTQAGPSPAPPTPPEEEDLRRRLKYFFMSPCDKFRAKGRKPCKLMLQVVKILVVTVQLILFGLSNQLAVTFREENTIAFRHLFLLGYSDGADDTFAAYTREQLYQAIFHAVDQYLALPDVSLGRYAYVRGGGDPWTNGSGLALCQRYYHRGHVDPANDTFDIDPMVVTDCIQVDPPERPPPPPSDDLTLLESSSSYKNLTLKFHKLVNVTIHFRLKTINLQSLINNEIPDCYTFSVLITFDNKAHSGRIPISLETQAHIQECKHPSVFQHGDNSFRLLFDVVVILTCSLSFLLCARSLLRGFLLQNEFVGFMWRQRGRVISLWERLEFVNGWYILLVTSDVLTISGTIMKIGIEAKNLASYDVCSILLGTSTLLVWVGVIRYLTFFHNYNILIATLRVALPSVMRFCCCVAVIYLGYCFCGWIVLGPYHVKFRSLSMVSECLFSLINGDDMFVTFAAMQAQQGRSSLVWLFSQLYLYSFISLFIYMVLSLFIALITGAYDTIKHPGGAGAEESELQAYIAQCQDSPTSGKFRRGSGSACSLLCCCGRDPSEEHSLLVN
UniProt P55217, sequence (whole entry, looked up): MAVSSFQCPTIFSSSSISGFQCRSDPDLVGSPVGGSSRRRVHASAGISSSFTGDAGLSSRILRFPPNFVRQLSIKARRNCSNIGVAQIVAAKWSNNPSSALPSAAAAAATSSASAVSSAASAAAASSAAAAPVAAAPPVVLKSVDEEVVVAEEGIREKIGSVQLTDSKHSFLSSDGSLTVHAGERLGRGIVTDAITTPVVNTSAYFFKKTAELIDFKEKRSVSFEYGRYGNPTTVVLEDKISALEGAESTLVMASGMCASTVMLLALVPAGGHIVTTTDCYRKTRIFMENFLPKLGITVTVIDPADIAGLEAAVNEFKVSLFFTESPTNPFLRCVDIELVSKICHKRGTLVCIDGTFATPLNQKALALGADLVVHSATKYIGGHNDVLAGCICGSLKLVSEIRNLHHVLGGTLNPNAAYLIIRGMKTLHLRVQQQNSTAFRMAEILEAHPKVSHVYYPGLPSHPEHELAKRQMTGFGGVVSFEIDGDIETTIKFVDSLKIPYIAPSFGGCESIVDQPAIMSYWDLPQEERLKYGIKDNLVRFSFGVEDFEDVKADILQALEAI

`CC(=O)NCCCC[C@H](NC(=O)[C@H](C)NC(=O)[C@H](CCCCN)NC(=O)[C@H](C)NC(=O)[C@H](CCCCN)NC(=O)CNC(=O)[C@H](CO)NC(=O)[C@H](CC(=O)O)NC(=O)[C@H](CCCCN)NC(=O)CNC(=O)[C@H](C)NC(=O)[C@H](CCCCN)NC(=O)CNC(=O)CNC(=O)[C@H](C)NC(=O)[C@@H](N)Cc1ccc(O)cc1)C(=O)N[C@@H](C)C(=O)N[C@H](C(=O)N[C@@H](CO)C(=O)N[C@@H](CCCNC(=N)N)C(N)=O)C(C)C` has a Kd of 1700 µM (BPTF bromodomain; bromodomain binding, PrOF NMR titration; pH 7.4, 5-fluorotryptophan-labelled bromodomain, 40-50 µM).
With `CC1CC(C)(C)N(C(=O)CN2C(=O)c3ccccc3C2=O)c2ccc(C(=O)N3CCN(C(=O)CCC4=[N+]5C(=Cc6ccc(-c7ccc[nH]7)n6[B-]5(F)F)C=C4)CC3)cc21` (stereo not drawn) the Kd was 0.8 ± 0.3 µM (Mucolipin-1 (MCOLN1, Homo sapiens, UniProt Q9GZU1); BRET saturation binding; HEK293T expressing target).
For `OC[C@H]1Oc2c(Cc3ccccc3)c(Cc3ccccc3)cc3c2[C@@H](OC3)[C@H]1O`, the Kd was 310 µM (LGALS1; ligand displacement, FP).
With `Cc1cc(N2CC[C@@](C#N)(C3CC3)C2=O)cc(NC(=O)Cc2ccccc2)n1` the Kd was 0.243 µM and 0.313 µM (Proline--tRNA ligase (Plasmodium falciparum, UniProt Q8I5R7); binding, microscale thermophoresis).
`CC(=O)N[C@H]1[C@H](OCCCN)O[C@H](COS(=O)(=O)O)[C@@H](O[C@@H]2O[C@H](CO)[C@H](O)[C@H](O[C@]3(C(=O)O)C[C@H](O)[C@@H](NC(C)=O)[C@H]([C@H](O)[C@H](O)CO)O3)[C@H]2O)[C@@H]1O[C@@H]1O[C@@H](C)[C@@H](O)[C@@H](O)[C@@H]1O` has a Kd of 145 ± 10 µM (Sialic acid-binding Ig-like lectin 9, V-set domain (SIGLEC9, Homo sapiens, UniProt Q9Y336, C36S); Siglec-9 domain 1; pH 7.4, 293 K).
`CC(=O)NCCCC[C@H](NC(=O)[C@H](C)NC(=O)[C@H](CCCCN)NC(=O)CNC(=O)[C@H](CO)NC(=O)[C@H](CC(=O)O)NC(=O)[C@H](CCCCN)NC(=O)CNC(=O)[C@H](C)NC(=O)[C@H](CCCCN)NC(=O)CNC(=O)CNC(=O)[C@H](C)NC(=O)[C@@H](N)Cc1ccc(O)cc1)C(=O)N[C@@H](C)C(=O)N[C@@H](CCCCNC(C)=O)C(=O)N[C@@H](C)C(=O)N[C@H](C(=O)N[C@@H](CO)C(=O)N[C@@H](CCCNC(=N)N)C(N)=O)C(C)C` gave a Kd of 910 µM (BPTF bromodomain; bromodomain binding, PrOF NMR titration; pH 7.4, 5-fluorotryptophan-labelled bromodomain, 40-50 µM).
`CCOc1ccc(-c2nc3cc(-c4nc5cc(N6CCN(C)CC6)ccc5[nH]4)ccc3[nH]2)cc1` gave a Kd of 88.2 ± 6.6 µM (HIV-1 SL3 RNA stem-loop; binding, ESI-FTMS titration; pH 7.5).
With `O=C(O)Cc1cccc(O)c1` the Kd was 36.4 ± 6.9 µM (p-hydroxyphenylacetate 3-hydroxylase, reductase component (C1-hpah, Acinetobacter baumannii, UniProt Q6Q271); ITC; pH 7, added: 1 mM FMN).
The Kd of `CC(=O)NCCCC[C@H](NC(=O)[C@H](CCCCN)NC(=O)[C@H](Cc1c[nH]cn1)NC(=O)[C@H](CCCNC(=N)N)NC(C)=O)C(=O)Nc1ccc2c(C)cc(=O)oc2c1` is reported as 18.2 µM (SIRT1 (Homo sapiens, UniProt Q96EB6, C253S/C268S/C501S/C502S/del513-640/N226A/Q222A); peptide binding, isothermal titration calorimetry; 10% glycerol; pH 7.5, 25 °C, Q222A/N226A mutant, added: resveratrol 0.5 mM).
`O=C(Cc1cccc(C(F)(F)F)c1)Nc1cc(Oc2c(Cl)cc3nc(NC(=O)C4CC4)sc3c2Cl)ccc1F` has a Kd of > 5 µM (RIPK3; binding, competition with immobilised ligand).
`OC[C@H]1Oc2c(I)c(I)cc3c2[C@@H](OC3)[C@H]1O` has a Kd of 890 µM (LGALS1; ligand displacement, FP).
For `CC(C)C[C@@H]1NC(=O)[C@H](C(C)C)NC(=O)[C@H](CCCNC(=N)N)NC(=O)[C@@H](N)CSSC[C@@H](C(=O)O)NC(=O)[C@H](CO)NC(=O)CNC(=O)[C@H](CO)NC(=O)[C@H](CCCNC(=N)N)NC1=O`, the Kd was > 1000 µM (Retinoic acid receptor RXR-beta (Homo sapiens, UniProt P28702); binding, SPR).
`CCc1noc(-c2cccc(NC(=O)c3cccc(OC)c3)c2)n1` has a Kd of 5.04 µM (Cystathionine gamma-synthase 1, chloroplastic (CGS1, Arabidopsis thaliana, UniProt P55217); binding, microscale thermophoresis).
`Cc1ccc(CCN2COc3c(cc(F)c4cccnc34)C2)cc1` gave a Kd of 16 µM (rplL (Escherichia coli, UniProt P0A7K2); binding, SPR).
For `COC(=O)c1c(Oc2ccc(F)c(NC(=O)Cc3cccc(C(F)(F)F)c3)c2)ccc2nc(NC(=O)C3CC3)sc12`, the Kd was 0.14 µM (RIPK3; binding, competition with immobilised ligand).

Excerpt of the above:
The Kd of `CC(=O)NCCCC[C@H](NC(=O)[C@H](CCCCN)NC(=O)[C@H](Cc1c[nH]cn1)NC(=O)[C@H](CCCNC(=N)N)NC(C)=O)C(=O)Nc1ccc2c(C)cc(=O)oc2c1` is reported as 18.2 µM (SIRT1 (Homo sapiens, UniProt Q96EB6, C253S/C268S/C501S/C502S/del513-640/N226A/Q222A); peptide binding, isothermal titration calorimetry; 10% glycerol; pH 7.5, 25 °C, Q222A/N226A mutant, added: resveratrol 0.5 mM).
`O=C(Cc1cccc(C(F)(F)F)c1)Nc1cc(Oc2c(Cl)cc3nc(NC(=O)C4CC4)sc3c2Cl)ccc1F` has a Kd of > 5 µM (RIPK3; binding, competition with immobilised ligand).
